Assay results pooled from the literature.
Compare with care: the assays were run in different laboratories. Numbers after ± are the reported error.
ADRB2: Beta-2 adrenergic receptor (ADRB2, Homo sapiens, UniProt P07550)
Sequence of UniProt P07550 (whole entry, unmodified, looked up): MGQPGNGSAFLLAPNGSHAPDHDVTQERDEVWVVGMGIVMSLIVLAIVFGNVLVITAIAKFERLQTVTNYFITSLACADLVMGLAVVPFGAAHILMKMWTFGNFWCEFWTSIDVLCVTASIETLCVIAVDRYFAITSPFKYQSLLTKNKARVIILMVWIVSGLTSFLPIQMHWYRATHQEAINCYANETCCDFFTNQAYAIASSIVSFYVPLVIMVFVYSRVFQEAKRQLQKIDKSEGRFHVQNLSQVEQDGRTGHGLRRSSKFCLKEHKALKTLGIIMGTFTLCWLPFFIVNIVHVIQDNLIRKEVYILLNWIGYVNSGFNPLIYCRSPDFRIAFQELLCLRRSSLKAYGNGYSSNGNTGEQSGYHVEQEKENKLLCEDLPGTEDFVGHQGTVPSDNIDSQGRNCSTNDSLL
glpG: Rhomboid protease GlpG (glpG, Escherichia coli, UniProt P09391)
Sequence of UniProt P09391 (whole entry, looked up): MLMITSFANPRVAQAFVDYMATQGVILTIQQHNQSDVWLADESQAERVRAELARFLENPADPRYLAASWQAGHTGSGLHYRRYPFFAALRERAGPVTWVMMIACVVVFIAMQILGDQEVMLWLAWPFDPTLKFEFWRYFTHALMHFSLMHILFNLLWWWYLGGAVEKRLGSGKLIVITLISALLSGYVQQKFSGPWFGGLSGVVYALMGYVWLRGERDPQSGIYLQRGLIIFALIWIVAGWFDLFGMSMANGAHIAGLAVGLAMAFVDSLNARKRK
TDP1: Tyrosyl-DNA phosphodiesterase 1 (TDP1, Homo sapiens, UniProt Q9NUW8)
Sequence of UniProt Q9NUW8 (whole entry, looked up): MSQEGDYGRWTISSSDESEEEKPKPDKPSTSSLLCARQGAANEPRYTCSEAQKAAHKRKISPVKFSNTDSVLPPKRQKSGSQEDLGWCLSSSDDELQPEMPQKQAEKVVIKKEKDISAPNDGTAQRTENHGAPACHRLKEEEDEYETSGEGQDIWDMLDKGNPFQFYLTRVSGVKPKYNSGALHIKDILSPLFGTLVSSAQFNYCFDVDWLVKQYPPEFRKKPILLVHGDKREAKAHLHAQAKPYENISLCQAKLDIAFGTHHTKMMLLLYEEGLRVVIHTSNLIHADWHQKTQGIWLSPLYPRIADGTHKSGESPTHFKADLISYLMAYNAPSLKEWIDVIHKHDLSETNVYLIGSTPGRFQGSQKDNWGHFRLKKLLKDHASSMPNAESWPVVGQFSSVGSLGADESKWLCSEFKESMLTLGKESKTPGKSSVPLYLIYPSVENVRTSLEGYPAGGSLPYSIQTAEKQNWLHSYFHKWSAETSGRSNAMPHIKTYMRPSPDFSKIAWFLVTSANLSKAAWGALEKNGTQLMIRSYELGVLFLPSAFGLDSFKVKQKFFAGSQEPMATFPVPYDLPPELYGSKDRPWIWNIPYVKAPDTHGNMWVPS
ppa: Inorganic pyrophosphatase (ppa, Escherichia coli, UniProt P0A7A9)
Sequence of UniProt P0A7A9 (whole entry, looked up): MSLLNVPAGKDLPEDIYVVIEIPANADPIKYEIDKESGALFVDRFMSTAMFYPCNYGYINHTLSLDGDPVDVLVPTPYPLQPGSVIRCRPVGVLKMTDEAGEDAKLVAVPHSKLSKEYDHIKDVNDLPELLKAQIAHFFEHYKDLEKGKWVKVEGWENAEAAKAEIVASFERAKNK
Uncharacterized protein: Uncharacterized protein (Trypanosoma brucei brucei, UniProt Q386Q8)
NNMT: Nicotinamide N-methyltransferase (NNMT, Homo sapiens, UniProt P40261)
Sequence of UniProt P40261 (whole entry, looked up): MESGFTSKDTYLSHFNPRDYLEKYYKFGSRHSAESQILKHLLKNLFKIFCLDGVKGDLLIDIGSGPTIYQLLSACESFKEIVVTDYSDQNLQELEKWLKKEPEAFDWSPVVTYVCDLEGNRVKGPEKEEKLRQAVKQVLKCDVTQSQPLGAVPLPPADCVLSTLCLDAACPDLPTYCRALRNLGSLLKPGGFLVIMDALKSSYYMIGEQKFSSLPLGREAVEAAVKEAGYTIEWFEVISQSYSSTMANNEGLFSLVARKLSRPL
Gria1: Glutamate receptor 1 (Gria1, Rattus norvegicus, UniProt P19490)
Sequence of UniProt P19490 (whole entry, looked up): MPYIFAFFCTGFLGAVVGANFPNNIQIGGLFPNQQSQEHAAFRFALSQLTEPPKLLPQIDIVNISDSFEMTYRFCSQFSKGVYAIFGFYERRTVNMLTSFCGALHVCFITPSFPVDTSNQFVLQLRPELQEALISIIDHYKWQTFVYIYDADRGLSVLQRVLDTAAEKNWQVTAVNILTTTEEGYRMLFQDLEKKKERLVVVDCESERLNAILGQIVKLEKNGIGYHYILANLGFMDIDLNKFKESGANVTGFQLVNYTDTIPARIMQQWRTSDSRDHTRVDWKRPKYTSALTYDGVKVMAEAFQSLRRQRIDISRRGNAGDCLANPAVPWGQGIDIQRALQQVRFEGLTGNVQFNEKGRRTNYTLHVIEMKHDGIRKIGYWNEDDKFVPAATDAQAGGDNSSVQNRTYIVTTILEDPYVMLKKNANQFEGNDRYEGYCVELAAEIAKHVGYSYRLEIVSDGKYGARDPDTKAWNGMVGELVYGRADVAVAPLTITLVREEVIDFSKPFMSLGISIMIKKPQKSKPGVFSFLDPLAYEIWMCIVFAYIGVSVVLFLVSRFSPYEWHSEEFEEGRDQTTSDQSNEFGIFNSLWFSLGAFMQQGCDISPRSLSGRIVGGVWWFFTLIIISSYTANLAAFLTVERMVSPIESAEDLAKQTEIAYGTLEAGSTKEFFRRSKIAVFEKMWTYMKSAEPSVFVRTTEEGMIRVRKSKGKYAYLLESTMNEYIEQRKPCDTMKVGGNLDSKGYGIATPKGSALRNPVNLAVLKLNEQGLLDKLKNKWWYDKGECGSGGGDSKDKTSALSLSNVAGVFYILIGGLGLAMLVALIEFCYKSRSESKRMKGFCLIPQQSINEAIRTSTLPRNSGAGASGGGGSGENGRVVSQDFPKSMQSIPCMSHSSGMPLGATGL
NTSR1: Neurotensin receptor type 1 (NTSR1, Homo sapiens, UniProt P30989)
Sequence of UniProt P30989 (whole entry, looked up): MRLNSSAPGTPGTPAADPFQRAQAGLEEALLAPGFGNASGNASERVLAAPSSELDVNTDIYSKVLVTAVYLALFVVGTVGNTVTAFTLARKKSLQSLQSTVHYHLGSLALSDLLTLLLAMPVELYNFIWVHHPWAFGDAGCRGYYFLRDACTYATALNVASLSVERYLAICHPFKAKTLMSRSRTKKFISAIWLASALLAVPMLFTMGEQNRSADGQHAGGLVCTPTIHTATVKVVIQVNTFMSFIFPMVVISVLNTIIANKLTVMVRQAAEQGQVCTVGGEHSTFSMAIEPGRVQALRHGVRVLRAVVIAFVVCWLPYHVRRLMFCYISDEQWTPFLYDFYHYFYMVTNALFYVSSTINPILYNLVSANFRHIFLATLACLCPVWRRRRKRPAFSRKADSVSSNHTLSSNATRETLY
PIK3CD: Phosphatidylinositol 4,5-bisphosphate 3-kinase catalytic subunit delta isoform (PIK3CD, Homo sapiens, UniProt O00329)
Sequence of UniProt O00329 (whole entry, looked up): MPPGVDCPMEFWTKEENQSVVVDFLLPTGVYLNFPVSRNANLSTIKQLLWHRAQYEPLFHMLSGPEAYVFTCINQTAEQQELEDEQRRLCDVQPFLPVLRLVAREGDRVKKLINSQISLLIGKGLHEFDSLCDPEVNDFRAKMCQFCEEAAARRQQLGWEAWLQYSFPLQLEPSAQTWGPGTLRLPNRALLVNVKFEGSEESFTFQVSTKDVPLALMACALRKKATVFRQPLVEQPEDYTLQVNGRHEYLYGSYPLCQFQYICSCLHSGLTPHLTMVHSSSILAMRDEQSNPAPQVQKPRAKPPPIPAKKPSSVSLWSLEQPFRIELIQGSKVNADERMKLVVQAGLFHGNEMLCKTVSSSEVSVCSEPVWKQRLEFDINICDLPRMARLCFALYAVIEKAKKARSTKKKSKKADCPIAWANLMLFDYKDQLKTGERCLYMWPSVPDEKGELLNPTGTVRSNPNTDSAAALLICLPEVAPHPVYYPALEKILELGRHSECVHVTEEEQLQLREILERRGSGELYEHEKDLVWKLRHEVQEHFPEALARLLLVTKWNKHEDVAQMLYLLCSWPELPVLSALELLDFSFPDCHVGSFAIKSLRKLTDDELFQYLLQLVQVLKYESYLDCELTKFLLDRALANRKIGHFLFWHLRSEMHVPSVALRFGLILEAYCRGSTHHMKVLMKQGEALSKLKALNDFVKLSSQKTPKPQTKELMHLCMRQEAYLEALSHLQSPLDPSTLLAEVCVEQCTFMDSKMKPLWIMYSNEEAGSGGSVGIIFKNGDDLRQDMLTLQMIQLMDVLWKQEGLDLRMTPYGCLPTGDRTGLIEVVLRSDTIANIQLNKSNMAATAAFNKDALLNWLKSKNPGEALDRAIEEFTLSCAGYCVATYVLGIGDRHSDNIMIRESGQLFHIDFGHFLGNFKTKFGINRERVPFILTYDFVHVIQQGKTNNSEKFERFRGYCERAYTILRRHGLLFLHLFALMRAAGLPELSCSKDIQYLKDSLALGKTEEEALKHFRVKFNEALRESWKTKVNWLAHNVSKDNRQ
Sequence of UniProt Q9UH17 (whole entry, looked up): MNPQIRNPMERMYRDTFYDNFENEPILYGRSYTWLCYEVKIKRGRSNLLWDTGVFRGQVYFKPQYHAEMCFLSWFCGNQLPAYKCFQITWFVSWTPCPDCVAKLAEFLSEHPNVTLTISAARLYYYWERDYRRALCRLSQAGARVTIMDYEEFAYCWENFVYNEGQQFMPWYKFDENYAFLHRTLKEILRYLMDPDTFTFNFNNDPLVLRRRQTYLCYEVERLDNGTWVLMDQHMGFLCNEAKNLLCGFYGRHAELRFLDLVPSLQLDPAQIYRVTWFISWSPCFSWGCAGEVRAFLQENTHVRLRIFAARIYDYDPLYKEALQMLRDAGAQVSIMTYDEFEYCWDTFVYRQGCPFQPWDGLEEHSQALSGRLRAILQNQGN
Sequence of UniProt O75365 (whole entry, unmodified, looked up): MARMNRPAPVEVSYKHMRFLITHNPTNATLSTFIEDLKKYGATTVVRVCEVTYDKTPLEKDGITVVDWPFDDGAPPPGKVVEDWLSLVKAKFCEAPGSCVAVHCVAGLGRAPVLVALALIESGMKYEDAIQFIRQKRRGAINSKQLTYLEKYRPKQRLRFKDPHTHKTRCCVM
Sequence of UniProt P20618 (whole entry, looked up): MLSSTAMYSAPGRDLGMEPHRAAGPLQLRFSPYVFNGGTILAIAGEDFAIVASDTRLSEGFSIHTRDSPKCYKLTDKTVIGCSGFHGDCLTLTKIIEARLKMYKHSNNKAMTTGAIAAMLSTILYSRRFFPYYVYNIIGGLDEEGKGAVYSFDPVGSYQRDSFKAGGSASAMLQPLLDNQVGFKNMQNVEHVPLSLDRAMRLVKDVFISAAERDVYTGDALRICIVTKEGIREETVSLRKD

CC(C)(C)NC(=O)CC(NC(=O)CCc1ccccc1)C(=O)NCCNC(=O)c1ccc(-c2ccccc2)cc1 (centres unmarked) — IC50 (Proteasome component C5/PSMB5 (Homo sapiens, UniProt P20618+P28074); enzyme activity, inhibitor; constitutive proteasome β5c): > 100 µM
O=C1C(Cl)=C(NCCN2CCOCC2)C(=O)c2ncccc21 — IC50 (EHMT1 (Homo sapiens, UniProt Q9H9B1); enzyme activity, inhibitor): > 100 µM
Brc1cccc(Nc2nc(NC3CCCCC3)c3ccccc3n2)c1 — IC50 (ADRB2; cAMP production, antagonist, GloSensor; together with: isoproterenol 1 µM): > 50 µM
O=C(COC(=O)c1cc2c(s1)CCCCC2)NC1CCCCC1 — IC50 (Protein tyrosine phosphatase type IVA 3, with CNNM4 CBS domain (PTP4A3, Homo sapiens, UniProt O75365); protein-protein interaction, inhibitor, HTRF): > 10 µM
CCC(CC)C(=O)/C=C/C(=O)N1CCc2cc(Nc3ncc(C)c(-c4cnn(C(C)C)c4)n3)ccc2C1 — IC50 (JAK1 (Homo sapiens, UniProt P23458); enzyme activity, inhibitor, ADP detection): 0.00512 µM
O=C1CC(c2ccccc2)N1S(=O)(=O)Cc1ccccc1 (centres unmarked) — IC50 (glpG; enzyme activity, inhibitor): 2.3 µM
CCC1(O)CCCN(C(=O)c2cccc(C#N)c2)C1 (centres unmarked) — IC50 (DNA dC->dU-editing enzyme APOBEC-3B, C-terminal domain (Homo sapiens, UniProt Q9UH17); deaminase activity, inhibitor, UDG-coupled deamination): 506 ± 25 µM
CC(C)NC(=O)c1ccc2nc(-c3ccccc3)cn2c1 — IC50 (Protein AF-9, YEATS domain (Homo sapiens, UniProt P42568); YEATS domain binding, inhibitor, HTRF): 17.4 µM
CC(C)c1ccc(/C=C/C(=O)c2ccc(Br)cc2)cc1 — IC50 (MAOB (Homo sapiens, UniProt P27338); enzyme activity, inhibitor): 0.114 µM
Cc1nn(Cc2ccccc2Cl)c(Cl)c1C=NOCc1ccc(-c2nc3cc(-c4ccccc4)ccn3c2Nc2ccc(C(=O)O)cc2)cc1 — inhibition (TDP1; enzyme activity, inhibitor; 100 µM, unpurified compound): 54.5%
COc1ccc(C2=Nn3c(nnc3C3CCCCC3)SC2)cc1OC — IC50 (ppa; enzyme activity, inhibitor): 575 µM
CN(C)c1nc(NCc2cccc(-c3ccccc3)c2)c(/N=N/c2ccc(Cl)cc2)c(N(C)C)n1 — IC50 (Chitinase (OfChi-h, Ostrinia furnacalis, UniProt Q4AE59); enzyme activity, inhibitor, fluorescence): 0.12 µM
CC(=O)Nc1sc2c(c1SC#N)CCCC2 — IC50 (Uncharacterized protein; enzyme activity, inhibitor, coupled colorimetric; together with: E. coli pyrophosphatase coupling): 39.3 µM
Cc1nn(-c2cccc(N)c2)c(=O)c2cnc(Nc3ccc(N4CCNCC4)cc3)nc12 — IC50 (FGFR2 (Homo sapiens, UniProt P21802); enzyme activity, inhibitor): > 10 µM
NC1=NCCc2ccccc21 — IC50 (NNMT; enzyme activity, inhibitor): 1.58 µM
COC(=O)c1ccc(C=NOCc2ccc(-c3nc4cc(-c5ccccc5)ccn4c3Nc3ccc(C(=O)O)cc3)cc2)cc1 — inhibition (TDP1; enzyme activity, inhibitor; 100 µM, unpurified compound): 59.3%
C[N+](C)(CCCN1c2ccccc2CCc2ccc(Cl)cc21)Cc1ccccc1 — IC50 (Uncharacterized protein; enzyme activity, inhibitor, coupled colorimetric; together with: E. coli pyrophosphatase coupling): 36.7 µM
O=C(O)Cc1cc2c(cc1C(=O)c1ccccc1)OCO2 — IC50 (Gria1; ion current, patch clamp): 5.63 µM
O=c1cnnc(Nc2ccc(O)cc2)[nH]1 — IC50 (DNA dC->dU-editing enzyme APOBEC-3B (Homo sapiens, UniProt Q9UH17); enzyme activity, inhibitor, HPLC): 505 µM
Fc1ccc(Nc2nc(NC3CCCCC3)c3cc(Br)ccc3n2)cc1F — IC50 (ADRB2 (Homo sapiens, UniProt P07550, C125V); β-arrestin2 recruitment, antagonist, BRET; HEK293; mutant C125V, together with: isoprenaline 1 µM): 0.2 µM
COc1ccccc1C1CCN(c2nc(C3CC3)nc3ccc(N4CCC(N(C)C)C4)cc23)CC1 (centres unmarked) — IC50 (NTSR1; G protein activation, antagonist): 13.5 µM
Cc1ccc2nc(Nc3ccc(F)c(F)c3)nc(NC3CCCCC3)c2c1 — IC50 (ADRB2; cAMP production, antagonist, GloSensor; together with: isoproterenol 1 µM): 17 ± 7 µM
CCc1ccc(/N=C2\C(=O)N(Cc3ccc([N+](=O)[O-])cc3)c3ccccc32)cc1 — IC50 (PIK3CD; enzyme activity, inhibitor, ADP detection): 0.0596 µM
O=C(CCNC(=O)CNC(=O)CC(c1ccccc1)(c1ccccc1)c1ccccc1)NC[C@@H]1CCCN(Cc2ccc3cc(F)ccc3c2)C1 — IC50 (CHRM5 (Homo sapiens, UniProt P08912); ligand displacement, radioligand; cell membranes): > 30 µM
COc1ccc(NC2(C#N)C(=O)Nc3ccccc32)cc1 (centres unmarked) — IC50 (ppa; inhibitor, counter-screen, coupling enzyme alone): 27.2 µM
COc1cc2nc(CC3CC3)nc(N3CCN(c4ccccc4OC)CC3)c2cc1OC — IC50 (NTSR1; G protein activation, antagonist, BRET): > 30 µM
C[N+]1(Cc2ccccc2)CCN(CCCN2c3ccccc3Sc3ccc(Cl)cc32)CC1 — IC50 (ppa; inhibitor, counter-screen, coupling enzyme alone): 94.2 µM
O=C1CC(c2ccccc2)N1S(=O)(=O)C1CCCC1 (centres unmarked) — IC50 (glpG; enzyme activity, inhibitor): 25 µM
COc1ccccc1/C=C1\C(=O)N(C)c2ccc(Nc3nc(C)nc4ccccc34)cc21 — IC50 (PIK3CD; enzyme activity, inhibitor, ADP detection): 0.542 µM
CC1CCC2(C(=O)O)CCC3(C)C(=CCC4C5(C)CCC(OC(=O)CCC(=O)O)C(C)(C)C5CCC43C)C2C1C (centres unmarked) — IC50 (UGT1A4 (Homo sapiens, UniProt P22310); enzyme activity, inhibitor; human, liver microsomes): 6.39 µM
CCN1/C(=C/C(C)=O)Sc2ccc(F)cc21 — IC50 (Adra1a (Rattus norvegicus, UniProt P43140); ligand displacement, radioligand): > 30 µM
O=C1/C(=N\c2ccccc2Br)c2ccccc2N1Cc1ccc([N+](=O)[O-])cc1 — IC50 (PIK3CD; enzyme activity, inhibitor, ADP detection): 0.0207 µM
CC(C)(C)n1ncc2c(=O)n(Cc3cccc(F)c3)c(NCc3ccc(F)cn3)nc21 — IC50 (CYP2C19 (Homo sapiens, UniProt P33261); enzyme activity, inhibitor): > 25 µM
O=C(O)Cc1cc2c(cc1C(=O)c1ccccc1I)OCO2 — IC50 (Gria1; glutamate-evoked current, inhibitor, whole-cell patch clamp; HEK293T, homomeric receptor): 4.79 µM
COc1cccc(OC)c1-c1cc(C(=O)NC2(C(=O)O)C3CC4CC(C3)CC2C4)nn1-c1ccc(C(=O)N(C)CCCN(C)CCCN(C)C(=O)[C@H](CCCCNC(=O)[C@H](CC(C)C)NC(=O)C2OC2C(=O)O)NC(=O)CN2CCN(CC(=O)[O-])CCN(CC(=O)[O-])CCN(CC(=O)[O-])CC2)cc1C(C)C.[Lu+3] (mixture of isomers) — IC50 (NTSR1; ligand displacement, radioligand): 0.014 µM
COc1cc(NC(=O)N2CCSc3ccccc32)cc(OC)c1 — IC50 (ppa; inhibitor, counter-screen, coupling enzyme alone): > 30 µM
N[C@@H](Cc1c[nH]c2ccc(OCc3ccc(I)cc3)cc12)C(=O)O — IC50 (SLC7A5 (Homo sapiens, UniProt Q01650); transporter uptake, inhibitor, radiometric): 22.7 µM
COc1ccc(OC)c(C2=Nn3c(nnc3-c3ccccc3)SC2)c1 — IC50 (Uncharacterized protein; inhibitor, coupled colorimetric; Trypanosoma brucei): 449 µM
CNc1cc(N)c(C(N)=O)cn1 — IC50 (NNMT; enzyme activity, inhibitor): 0.2 µM
CC(=O)C1=C(c2ccc(F)cc2)N(C(C)=O)n2cnnc2S1 — IC50 (ppa; inhibitor, counter-screen, coupling enzyme alone): 45.4 µM
COc1ccccc1C1CCN(c2nc(C3(F)CC3)nc3cc(Cl)c(N(C)CCO)cc23)CC1 — IC50 (NTSR1; G protein activation, antagonist): 1.28 µM

Some of these lines once more:
O=C1C(Cl)=C(NCCN2CCOCC2)C(=O)c2ncccc21 — IC50 (EHMT1 (Homo sapiens, UniProt Q9H9B1); enzyme activity, inhibitor): > 100 µM
Brc1cccc(Nc2nc(NC3CCCCC3)c3ccccc3n2)c1 — IC50 (ADRB2; cAMP production, antagonist, GloSensor; together with: isoproterenol 1 µM): > 50 µM
O=C(COC(=O)c1cc2c(s1)CCCCC2)NC1CCCCC1 — IC50 (Protein tyrosine phosphatase type IVA 3, with CNNM4 CBS domain (PTP4A3, Homo sapiens, UniProt O75365); protein-protein interaction, inhibitor, HTRF): > 10 µM
CCC(CC)C(=O)/C=C/C(=O)N1CCc2cc(Nc3ncc(C)c(-c4cnn(C(C)C)c4)n3)ccc2C1 — IC50 (JAK1 (Homo sapiens, UniProt P23458); enzyme activity, inhibitor, ADP detection): 0.00512 µM
